Measured values gathered from unrelated publications.
“And” joins repeats or separate records; there may be more than shown. Values after ≈ are worked out from the molar mass of the structure shown.
Organism: Staphylococcus epidermidis

Structure (SMILES) | test | system | setting | measurement | result
C[C@H]1COC2=C1C(=O)C(=O)c1c2ccc2c1CCCC2(C)C | – | GDMCC 1.143 | 48 h | MIC | 125 µM (≈ 37 µg/mL)
O=[N+]([O-])c1ccc2c(N=Nc3c(O)ccc4ccccc34)c(O)cc(S(=O)(=O)O)c2c1 | – | LB medium | 100 µM, 50% growth delay | growth delay | 6.8 h
COc1c(N2C[C@@H]3CCCN[C@@H]3C2)c(F)cc2c(=O)c(C(=O)O)cn(C3CC3)c12 | broth microdilution | methicillin-resistant isolates | – | MIC50 | 1 µg/mL (≈ 2.49 µM)
CN[C@H](CC(C)C)C(=O)N[C@H]1C(=O)N[C@@H](CC(N)=O)C(=O)N[C@H]2C(=O)N[C@H]3C(=O)N[C@H](C(=O)N[C@H](C(=O)O)c4cc(O)cc(O)c4-c4cc3ccc4O)[C@H](O)c3ccc(c(Cl)c3)Oc3cc2cc(c3O[C@@H]2O[C@H](CO)[C@@H](O)[C@H](O)[C@H]2O[C@H]2C[C@](C)(N)[C@H](O)[C@H](C)O2)Oc2ccc(cc2Cl)[C@H]1O | – | 9397, female ICR mice, peritonitis, blood | dose not given | bacterial load | 5.27 log CFU and 4.87 log CFU and 3.98 log CFU and 4.26 log CFU and 5.88 log CFU and 4.42 log CFU
c1ccc(CN(CCN(Cc2ccccn2)Cc2ccccn2)Cc2ccccn2)nc1 | Calgary Biofilm Device | MRSE 35984, established biofilm | 24 h | MBEC | > 2000 µM
CN[C@H](CC(C)C)C(=O)N[C@H]1C(=O)N[C@@H](CC(N)=O)C(=O)N[C@H]2C(=O)N[C@H]3C(=O)N[C@H](C(=O)N[C@H](C(=O)O)c4cc(O)cc(O)c4-c4cc3ccc4O)[C@H](O)c3ccc(c(Cl)c3)Oc3cc2cc(c3O[C@@H]2O[C@H](CO)[C@@H](O)[C@H](O)[C@H]2O[C@H]2C[C@](C)(N)[C@H](O)[C@H](C)O2)Oc2ccc(cc2Cl)[C@H]1O | broth microdilution | methicillin-resistant clinical isolates | – | MIC range | 1 µg/mL (≈ 0.69 µM)
Oc1c(Br)cc(Br)c2nc3c(F)cccc3nc12 | broth microdilution | 12228 | – | MIC | 0.78 µM (≈ 0.29 µg/mL)
CC[C@H]1OC(=O)[C@H](C)[C@@H](O[C@H]2C[C@@](C)(OC)[C@@H](O)[C@H](C)O2)[C@H](C)[C@@H](O[C@@H]2O[C@H](C)C[C@H](N(C)C)[C@H]2O)[C@](C)(O)C[C@@H](C)/C(=N\OCOCCOC)[C@H](C)[C@@H](O)[C@]1(C)O | – | – | – | MIC50 | 16 µg/mL (≈ 19.1 µM)
c1ccc(CN(CCN(Cc2ccccn2)Cc2ccccn2)Cc2ccccn2)nc1 | Calgary biofilm device | MRSE 35984 | planktonic cells | MBC | 1000 µM (≈ 425 µg/mL)
CC(=O)NC[C@H]1CN(c2ccc(N3CCOCC3)c(F)c2)C(=O)O1 | – | methicillin-resistant, 10 isolates | serum 75% | MIC50 | 4 µg/mL (≈ 11.9 µM)
NC[C@H]1O[C@H](O[C@H]2[C@H](O)[C@@H](O[C@H]3O[C@H](CO)[C@@H](O)[C@H](N)[C@H]3O)[C@H](N)C[C@@H]2N)[C@H](N)C[C@@H]1O | – | 1 | – | MIC | 1.56 µM (≈ 0.729 µg/mL)
CC1(C)S[C@@H]2[C@H](NC(=O)[C@H](N)c3ccccc3)C(=O)N2[C@H]1C(=O)O | – | – | – | MIC50 | 64 µg/mL (≈ 183 µM)
CN(C)[C@@H]1C(O)=C(C(N)=O)C(=O)[C@@]2(O)C(O)=C3C(=O)c4c(O)cccc4[C@@](C)(O)[C@H]3C[C@@H]12 | – | 1 | – | MIC | 25 µM (≈ 11.1 µg/mL)
Cc1c2c(nn1C)CSCc1cc(n(C)n1)CSc1cc(c3ccccc3c1)OCCCc1c(C(=O)O)n(C)c3c-2c(Cl)ccc13 | broth microdilution | 1457 | – | MIC | 6.25 µM (≈ 4.2 µg/mL)
